Results gathered from unrelated publications.
Compare with care: the assays were run in different laboratories. ± marks the error that the study gave.
B1: cooS 1-639 C49S (Rhodospirillum rubrum, UniProt P31896); chain MTHHDCAHCSSDACATEMLNLAEANSIETAWHRYEKQQPQCGFGSAGLSCRICLKGPCRIDPFGEGPKYGVCGADRDTIVARHLVRMIAAGTAAHSEHGRHIALAMQHISQGELHDYSIRDEAKLYAIAKTLGVATEGRGLLAIVGDLAAITLGDFQNQDYDKPCAWLAASLTPRRVKRLGDLGLLPHNIDASVAQTMSRTHVGCDADPTNLILGGLRVAMADLDGSMLATELSDALFGTPQPVVSAANLGVMKRGAVNIAVNGHNPMLSDIICDVAADLRDEAIAAGAAEGINIIGICCTGHEVMMRHGVPLATNYLSQELPILTGALEAMVVDVQCIMPSLPRIAECFHTQIITTDKHNKISGATHVPFDEHKAVETAKTIIRMAIAAFGRRDPNRVAIPAFKQKSIVGFSAEAVVAALAKVNADDPLKPLVDNVVNGNIQGIVLFVGCNTTKVQQDSAYVDLAKSLAKRNVLVLATGCAAGAFAKAGLMTSEATTQYAGEGLKGVLSAIGTAAGLGGPLPLVMHMGSCVDNSRAVALATALANKLGVDLSDLPLVASAPECMSEKALAIGSWAVTIGLPTHVGSVPPVIGSQIVTKLVTETAKDLVGGYFIVDTDPKSAGDKLYAAIQERRAGLGL
B2: sodN mature (Streptomyces seoulensis, UniProt P80734); sequence looked up; chain HCDLPCGVYDPAQARIEAESVKAIQEKMAANDDLHFQIRATVIKEQRAELAKHHLDVLWSDYFKPPHFESYPELHTLVNEAVKALSAAKASTDPATGQKALDYIAQIDKIFWETKKA
B3: Tomm70 S94A (Mus musculus, UniProt Q9CZW5); sequence looked up; chain MAASKPIEAAMAAAAAPGSGNGVGGGGGTAGPGSGAGTLPRWHVALAIGAPLLLGAGAMYLWSRRRRRREAGGRGDASGLKRNSERKTPEGRAAPALGSGHHDGSGDSLEMSSLDRAQAAKNKGNKYFKAGKYEQAIQCYTEAISLCPTEKNVDLSTFYQNRAAAFEQLQKWKEVAQDCTKAVELNPKYVKALFRRAKAHEKLDNKKECLEDVTAVCILEGFQNEQSMLLADKVLKLLGKENAKEKYKNREPLMPSPQFIKSYFSSFTDDIISQPMLKGEKSDEDKDKEGEALEVKENSGYLKAKQYMEEENYDKIISECSKEIDAQGKYMAEALLLRATFYLLIGSANAAKPDLDKVISLKEANVKLRANALIKRGTMCMQQQQPMLSTQDFNMAAEIDPMNSDVYHHRGQLKILLDLVEEAVADFDACIRLRPKFALAQAQKCFALYRQAYTANNSSQVQAAMKGFEEIIKKFPRCAEGYALYAQALTDQQQFGKADEMYDKCIDLEPDNATTYVHKGLLQLQWKQDLDKGLELISKAIEIDNKCDFAYETMGTIEVQRGNMEKAIDMFNKAINLAKSEMEMAHLYSLCDAAHAQTEVAKKYGLKPPTL
B4: human RBBP7; sequence looked up; chain ASKEMFEDTVEERVINEEYKIWKKNTPFLYDLVMTHALQWPSLTVQWLPEVTKPEGKDYALHWLVLGTHTSDEQNHLVVARVHIPNDDAQFDASHCDSDKGEFGGFGSVTGKIECEIKINHEGEVNRARYMPQNPHIIATKTPSSDVLVFDYTKHPAKPDPSGECNPDLRLRGHQKEGYGLSWNSNLSGHLLSASDDHTVCLWDINAGPKEGKIVDAKAIFTGHSAVVEDVAWHLLHESLFGSVADDQKLMIWDTRSNTTSKPSHLVDAHTAEVNCLSFNPYSEFILATGSADKTVALWDLRNLKLKLHTFESHKDEIFQVHWSPHNETILASSGTDRRLNVWDLSKIGEEQSAEDAEDGPPELLFIHGGHTAKISDFSWNPNEPWVICSVSEDNIMQIWQMAENIYNDEESDVTTSELEGQGS
B5: ktrB 1-445 (Bacillus subtilis, UniProt O32081); chain MTLQKDKVIKWVRFTPPQVLAIGFFLTIIIGAVLLMLPISTTKPLSWIDALFTAASATTVTGLAVVDTGTQFTVFGQTVIMGLIQIGGLGFMTFAVLIVMILGKKIGLKERMLVQEALNQPTIGGVIGLVKVLFLFSISIELIAALILSIRLVPQYGWSSGLFASLFHAISAFNNAGFSLWPDNLMSYVGDPTVNLVITFLFITGGIGFTVLFDVMKNRRFKTFSLHTKLMLTGTLMLNAIAMLTVFILEYSNPGTLGHLHIVDKLWASYFQAVTPRTAGFNSLDFGSMREGTIVFTLLLMFIGAGSASTASGIKLTTFIVILTSVIAYLRGKKETVIFRRSIKYPIIIKALAVSVTSLFIVFLGIFALTITEQAPFLQIVFETFSAFGTVGLTMGLTPELTTAGKCIIIVIMFIGRIGPLTFVFSFAKTEQSNIRYPDGEVFTG
B6: SiRe_0131 (Saccharolobus islandicus, UniProt F0NG80); sequence looked up; chain MEKIVKVNDTTYILEDERSVVITFKLEENILSMVDEIVKKLGYDYRSDFIRDAIEKYINYLKSSSNNSKMNINE
B7: gdh1 2-451 (Schizosaccharomyces pombe, UniProt P78804); chain STPYEPEFQQAYKEIVGSIESSKLFEVHPELKRVLPIISIPERVLEFRVTWEDDKGNCRVNTGYRVQFNSALGPYKGGLRFHPSVNLSILKFLGFEQIFKNALTGLPMGGGKGGSDFDPKGKSDNEIRRFSQAFMRQLFRYIGPQTDVPAGDIGVTGFVVMHMFGEYKRLRNEYSGVVTGKHMLTGGSNIRPEATGYGVVYYVKHMIEHRTKGAETLKGKRVAISGSGNVAQYAALKCIQEGAIVKSISDSKGVLIAKTAEGLVPEEIHEIMALKEKRASIADSASLCKKHHYIAGARPWTNVGEIDIALPCATQNEVSGEEAAALIKQGCRYVAEGSNMGSSAEAVEVFEKSRASGEGCWLAPGKAANAGGVAVSGLEMAQNAQFSTWTHAEVDAKLAGIMQNIFEQSTDVASKYCDSGSNNIPSLVDGANIAGFLKVATAMQAVGDWW
B8: Gm4951 (Mus musculus, UniProt Q3UED7); sequence looked up; chain MGQLFSSRRSEDQDLSSSFIEYLKECEKGINIIPHEIITSIEINMKKGNIQEVNSTVRDMLREIDNTPLNVALTGETGSGKSSFINTLRGIGHEEGGAAHTGVTDKTKERHPYEHPKMPNVVFWDLPGTGSEDFQPKTYLEKMKFYEYDFFIIISATRFKKNDIDLAKAIGIMKKEFYFVRTQVDSDLRNEEDFKPQTFDREKVLQDIRLNCVNTFRENGIAEPPIFLISNKNVCHYDFPVLMDKLISDLPVFKRQNFMFSLPNITDSVIEKKRNFLRWKTWLEGFADGLLSFFLESDLETLEKSMKFYRTVFGVDDASLQRLARAWEIDQVDQVRAMIKSPAVFTPTDEETIQERLSRYNQEFCLANGYLLPKNHCREILYLKLYFLDMVTEDAKTLLKEICLRN
B9: BcsB/BcsC TPR1-4 fused to BcsB (Escherichia coli); chain VEAAPTAQQQLLEQVRLGEATHREDLVQQSLYRLELIDPNNPDVVAARFRSLLRQGDIDGAQKQLDRLSQLAPSSNAYKSSRTTMLLSTPDGRQALQQARLQATTGHAEEAVASYNKLFNGAPPEGDIAVEYWSTVAKIPARRGEAINQLKRINADAPGGSGSGSGVQGADAPVVAQNGPSRDVKLTFAQIAPPPGSMVLRGINPNGSIEFGMRSDEVVTKAMLNLEYTPSPSLLPVQSQLKVYLNDELMGVLPVTKEQLGKKTLAQMPINPLFISDFNRVRLEFVGHYQDVCEKPASTTLWLDVGRSSGLDLTYQTLNVKNDLSHFPVPFFDPSDNRTNTLPMVFAGAPDVGLQQASAIVASWFGSRSGWRGQNFPVLYNQLPDRNAIVFATNDKRPDFLRDHPAVKAPVIEMINHPQNPYVKLLVVFGRDDKDLLQAAKGIAQGNILFRGESVVVNEVKPLLPRKPYDAPNWVRTDRPVTFGELKTYEEQLQSSGLEPAAINVSLNLPPDLYLMRSTGIDMDINYRYTMPPVKDSSRMDISLNNQFLQSFNLSSKQEANRLLLRIPVLQGLLDGKTDVSIPALKLGATNQLRFDFEYMNPMPGGSVDNCITFQPVQNHVVIGDDSTIDFSKYYHFIPMPDLRAFANAGFPFSRMADLSQTITVMPKAPNEAQMETLLNTVGFIGAQTGFPAINLTVTDDGSTIQGKDADIMIIGGIPDKLKDDKQIDLLVQATESWVKTPMRQTPFPGIVPDESDRAAETRSTLTSSGAMAAVIGFQSPYNDQRSVIALLADSPRGYEMLNDAVNDSGKRATMFGSVAVIRESGINSLRVGDVYYVGHLPWFERVWYALANHPILLAVLAAISVILLAWVLWRLLRIISRRRLNPDNE
B10: ACAT1 35-427 C126A (Homo sapiens, UniProt P24752); chain SKPTLKEVVIVSATRTPIGSFLGSLSLLPATKLGSIAIQGAIEKAGIPKEEVKEAYMGNVLQGGEGQAPTRQAVLGAGLPISTPCTTINKVAASGMKAIMMASQSLMCGHQDVMVAGGMESMSNVPYVMNRGSTPYGGVKLEDLIVKDGLTDVYNKIHMGSCAENTAKKLNIARNEQDAYAINSYTRSKAAWEAGKFGNEVIPVTVTVKGQPDVVVKEDEEYKRVDFSKVPKLKTVFQKENGTVTAANASTLNDGAAALVLMTADAAKRLNVTPLARIVAFADAAVEPIDFPIAPVYAASMVLKDVGLKKEDIAMWEVNEAFSLVVLANIKMLEIDPQKVNINGGAVSLGHPIGMSGARIVGHLTHALKQGEYGLASICNGGGGASAMLIQKL
B11: REC107 41-224 (Saccharomyces cerevisiae, UniProt P21651); chain KVANAGALEESDKQILEWAGKLELESMELRENSDKLIKVLNENSKTLCKSLNKFNQLLEQDAATNGNVKTLIKDLASQIENQLDKVSTAMLSKGDEKKTKSDSSYRQVLVEEISRYNSKITRHVTNKQHETEKSMRCTQEMLFNVGSQLEDVHKVLLSLSKDMHSLQTRQTALEMAFREKADHA
B12: ddrC 99-231 (Deinococcus radiodurans, UniProt Q9RYE6); sequence looked up; chain RVAAQIAERNPEPDARRWLAARLESTGARRELLATVARHGGEGRVYGQLGSISNRTVLGKDSASVRQERGVKATRDGLTSAELLRLAYIDTVTARAIQESEARGNAAILTLHEQVARSERQSWERAGQVQRVG
B13: Cas11 (Escherichia coli, UniProt P76632); sequence looked up; chain MADEIDAMALYRAWQQLDNGSCAQIRRVSEPDELRDIPAFYRLVQPFGWENPRHQQALLRMVFCLSAGKNVIRHQDKKSEQTTGISLGRALANSGRINERRIFQLIRADRTADMVQLRRLLTHAEPVLDWPLMARMLTWWGKRERQQLLEDFVLTTNKNA
Sequence of UniProt P26368 (whole entry, looked up): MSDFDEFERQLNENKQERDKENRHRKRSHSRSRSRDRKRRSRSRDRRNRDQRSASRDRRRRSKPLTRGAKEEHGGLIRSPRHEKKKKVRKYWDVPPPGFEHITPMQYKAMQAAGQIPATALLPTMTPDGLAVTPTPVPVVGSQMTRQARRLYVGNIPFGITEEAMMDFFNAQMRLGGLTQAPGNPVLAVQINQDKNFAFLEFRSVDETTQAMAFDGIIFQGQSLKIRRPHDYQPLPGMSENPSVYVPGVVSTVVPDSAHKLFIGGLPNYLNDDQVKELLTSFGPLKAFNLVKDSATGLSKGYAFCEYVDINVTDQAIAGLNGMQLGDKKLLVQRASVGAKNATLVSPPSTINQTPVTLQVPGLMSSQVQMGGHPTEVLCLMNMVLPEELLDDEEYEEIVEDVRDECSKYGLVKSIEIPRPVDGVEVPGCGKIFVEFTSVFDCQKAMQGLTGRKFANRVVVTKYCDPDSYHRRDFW
Sequence of UniProt P07196 (whole entry, looked up): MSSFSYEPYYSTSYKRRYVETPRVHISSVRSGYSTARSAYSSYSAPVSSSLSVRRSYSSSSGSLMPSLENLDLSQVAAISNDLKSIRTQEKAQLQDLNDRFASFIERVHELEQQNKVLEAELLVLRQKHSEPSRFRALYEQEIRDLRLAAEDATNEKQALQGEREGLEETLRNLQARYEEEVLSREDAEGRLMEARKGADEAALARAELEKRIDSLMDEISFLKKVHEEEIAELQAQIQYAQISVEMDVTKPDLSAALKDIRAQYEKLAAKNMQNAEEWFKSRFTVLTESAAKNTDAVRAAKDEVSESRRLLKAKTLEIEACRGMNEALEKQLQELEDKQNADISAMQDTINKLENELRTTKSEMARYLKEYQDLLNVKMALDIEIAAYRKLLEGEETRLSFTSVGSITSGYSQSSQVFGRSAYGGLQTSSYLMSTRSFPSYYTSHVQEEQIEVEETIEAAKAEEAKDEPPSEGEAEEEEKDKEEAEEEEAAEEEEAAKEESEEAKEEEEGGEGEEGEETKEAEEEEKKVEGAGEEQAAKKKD
Sequence of UniProt Q39054 (whole entry, looked up): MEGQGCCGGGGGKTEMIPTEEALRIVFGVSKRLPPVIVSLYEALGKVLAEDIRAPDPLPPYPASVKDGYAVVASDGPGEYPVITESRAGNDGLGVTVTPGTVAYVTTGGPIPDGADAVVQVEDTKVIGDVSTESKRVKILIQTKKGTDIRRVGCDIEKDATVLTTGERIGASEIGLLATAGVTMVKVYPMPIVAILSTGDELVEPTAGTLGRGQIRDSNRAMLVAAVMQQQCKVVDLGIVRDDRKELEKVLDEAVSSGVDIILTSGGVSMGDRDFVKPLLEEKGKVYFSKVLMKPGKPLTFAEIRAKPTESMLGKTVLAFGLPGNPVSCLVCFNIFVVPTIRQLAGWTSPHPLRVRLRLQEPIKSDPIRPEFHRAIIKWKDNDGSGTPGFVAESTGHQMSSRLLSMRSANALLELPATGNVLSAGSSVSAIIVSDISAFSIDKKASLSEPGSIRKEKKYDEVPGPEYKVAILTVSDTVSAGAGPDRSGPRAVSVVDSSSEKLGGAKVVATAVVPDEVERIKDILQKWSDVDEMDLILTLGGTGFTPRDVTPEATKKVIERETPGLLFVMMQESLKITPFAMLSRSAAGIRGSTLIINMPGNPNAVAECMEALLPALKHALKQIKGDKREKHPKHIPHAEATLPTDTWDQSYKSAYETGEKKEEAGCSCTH

| Substance | target or system | assay | system | setting | scale | endpoint | result |
| --- | --- | --- | --- | --- | --- | --- | --- |
| B1 (cooS 1-639 C49S) | itself | SEC-MALS | – | – | – | subunits per oligomer | 2 |
| UGUUAUGUG (ssRNA) | U2AF2 148-342 (Homo sapiens, UniProt P26368) | sequencing of bound RNA | RNA | motif only | – | Kd | 580 nM |
| VSRVSREELEDRFLRMHDENILLKQHARKQEDKIKRMATKLIRLVNDKKRYERVGG (RPGRIP1L CC1 42-97 L57M (Mus musculus, UniProt Q8CG73); sequence looked up) | itself | SEC-MALS | – | – | – | subunits per oligomer | 2 |
| NEFL (Homo sapiens, UniProt P07196) | itself | native MS | – | – | – | subunits per oligomer | 4 |
| B2 (sodN mature) | itself | ESI-MS | – | denaturing conditions | – | subunits per oligomer | 6 |
| human filamin A | CYB5R4 knockout human cells | PP4 interaction, 3xFLAG-PP4C IP-MS | – | concentration not given | relative to: CYB5R4 KO over parental | log2 fold change | 0.05 |
| CNX1 (Arabidopsis thaliana, UniProt Q39054) | itself | SEC | – | – | – | subunits per oligomer | 6 |
| MKGMSKMPQFLLVWPREVLDLVRKVAEENGRSVNSEIYQRVMESFKKEGRIGA (Arc repressor 1-53 N11L/R13V (P22 phage, UniProt P03050)) | itself | SEC | – | – | – | subunits per oligomer | 2 |
| B3 (Tomm70 S94A) | itself | native PAGE | – | – | – | subunits per oligomer | 2 |
| B4 (human RBBP7) | CYB5R4 knockout human cells | PP4 interaction, 3xFLAG-PP4C IP-MS | – | concentration not given | relative to: CYB5R4 KO over parental | log2 fold change | -1.17 |
| B5 (ktrB 1-445) | itself | crystal structure | – | – | – | subunits per oligomer | 2 |
| B6 (SiRe_0131) | itself | SEC | – | – | – | subunits per oligomer | 2 |
| B7 (gdh1 2-451) | itself | crystallography | – | – | – | subunits per oligomer | 6 |
| B8 (Gm4951) | itself | mass photometry | – | together with: GDP | – | subunits per oligomer | 2 |
| B9 (BcsB/BcsC TPR1-4 fused to BcsB) | itself | cryo-EM | – | – | – | subunits per oligomer | 5 |
| B10 (ACAT1 35-427 C126A) | itself | native gel | – | C126A mutant | – | subunits per oligomer | 4 |
| B11 (REC107 41-224) | itself | SEC-SAXS | – | – | – | subunits per oligomer | 4 |
| B12 (ddrC 99-231) | itself | SEC-MALS | – | – | – | subunits per oligomer | 1.96 ± 0.35 n-mer |
| B13 (Cas11) | itself | SEC | – | – | – | subunits per oligomer | 2 |
